Experimental data pooled from the literature.
Parts stem from different laboratories: compare values within a part only.
Sequence of UniProt Q05513 (whole entry, looked up): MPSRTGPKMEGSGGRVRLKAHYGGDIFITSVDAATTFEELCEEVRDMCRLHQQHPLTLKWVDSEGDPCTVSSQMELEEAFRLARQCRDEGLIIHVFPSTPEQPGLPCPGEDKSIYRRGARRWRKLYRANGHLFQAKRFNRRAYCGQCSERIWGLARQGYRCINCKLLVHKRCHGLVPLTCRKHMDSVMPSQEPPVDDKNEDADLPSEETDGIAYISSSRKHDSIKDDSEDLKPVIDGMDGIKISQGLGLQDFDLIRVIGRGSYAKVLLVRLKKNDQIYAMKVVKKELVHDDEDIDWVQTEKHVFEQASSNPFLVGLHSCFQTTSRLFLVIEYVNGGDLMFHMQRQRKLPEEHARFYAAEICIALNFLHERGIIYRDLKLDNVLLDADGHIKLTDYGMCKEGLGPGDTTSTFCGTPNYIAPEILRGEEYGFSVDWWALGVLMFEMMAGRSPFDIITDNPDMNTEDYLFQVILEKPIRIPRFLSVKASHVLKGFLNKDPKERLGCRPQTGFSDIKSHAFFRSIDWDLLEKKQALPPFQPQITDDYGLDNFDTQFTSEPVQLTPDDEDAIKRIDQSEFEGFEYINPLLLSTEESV
Sequence of UniProt O94921 (whole entry, looked up): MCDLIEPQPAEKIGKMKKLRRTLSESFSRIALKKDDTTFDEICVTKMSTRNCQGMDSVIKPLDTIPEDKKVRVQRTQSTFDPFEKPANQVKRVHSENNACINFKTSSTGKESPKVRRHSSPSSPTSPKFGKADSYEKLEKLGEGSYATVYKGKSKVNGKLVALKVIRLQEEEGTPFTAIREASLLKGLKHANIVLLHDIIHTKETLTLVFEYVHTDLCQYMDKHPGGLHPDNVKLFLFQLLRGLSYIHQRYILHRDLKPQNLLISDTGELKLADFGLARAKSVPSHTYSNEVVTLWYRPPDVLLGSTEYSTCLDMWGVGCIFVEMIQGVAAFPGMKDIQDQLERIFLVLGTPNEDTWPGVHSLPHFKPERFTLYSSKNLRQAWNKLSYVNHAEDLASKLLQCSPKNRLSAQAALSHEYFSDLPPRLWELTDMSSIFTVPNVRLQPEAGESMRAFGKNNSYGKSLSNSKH
Sequence of UniProt P37023 (whole entry, looked up): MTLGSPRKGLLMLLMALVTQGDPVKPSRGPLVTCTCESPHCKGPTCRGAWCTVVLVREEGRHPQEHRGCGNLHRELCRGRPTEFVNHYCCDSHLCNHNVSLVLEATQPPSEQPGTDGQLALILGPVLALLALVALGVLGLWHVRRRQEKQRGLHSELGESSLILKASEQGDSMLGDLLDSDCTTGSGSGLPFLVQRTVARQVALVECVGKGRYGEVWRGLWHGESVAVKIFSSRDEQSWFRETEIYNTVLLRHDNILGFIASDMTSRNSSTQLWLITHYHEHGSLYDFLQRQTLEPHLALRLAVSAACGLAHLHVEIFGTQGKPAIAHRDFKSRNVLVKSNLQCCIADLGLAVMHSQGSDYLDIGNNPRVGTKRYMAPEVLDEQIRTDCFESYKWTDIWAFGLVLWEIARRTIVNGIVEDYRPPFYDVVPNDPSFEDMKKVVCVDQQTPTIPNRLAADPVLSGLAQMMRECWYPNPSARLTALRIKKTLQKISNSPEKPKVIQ
Sequence of UniProt Q9HBY8 (whole entry, looked up): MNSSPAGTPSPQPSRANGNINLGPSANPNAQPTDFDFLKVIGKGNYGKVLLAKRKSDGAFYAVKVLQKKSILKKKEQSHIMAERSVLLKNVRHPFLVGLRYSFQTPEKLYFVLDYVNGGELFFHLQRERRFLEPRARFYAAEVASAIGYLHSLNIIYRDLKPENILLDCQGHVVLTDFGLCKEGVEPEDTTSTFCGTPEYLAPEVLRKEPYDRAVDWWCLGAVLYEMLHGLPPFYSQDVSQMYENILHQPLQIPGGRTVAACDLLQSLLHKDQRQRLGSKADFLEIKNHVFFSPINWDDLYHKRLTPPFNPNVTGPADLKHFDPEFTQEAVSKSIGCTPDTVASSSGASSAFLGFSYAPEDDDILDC
Sequence of UniProt Q96SB4 (whole entry, looked up): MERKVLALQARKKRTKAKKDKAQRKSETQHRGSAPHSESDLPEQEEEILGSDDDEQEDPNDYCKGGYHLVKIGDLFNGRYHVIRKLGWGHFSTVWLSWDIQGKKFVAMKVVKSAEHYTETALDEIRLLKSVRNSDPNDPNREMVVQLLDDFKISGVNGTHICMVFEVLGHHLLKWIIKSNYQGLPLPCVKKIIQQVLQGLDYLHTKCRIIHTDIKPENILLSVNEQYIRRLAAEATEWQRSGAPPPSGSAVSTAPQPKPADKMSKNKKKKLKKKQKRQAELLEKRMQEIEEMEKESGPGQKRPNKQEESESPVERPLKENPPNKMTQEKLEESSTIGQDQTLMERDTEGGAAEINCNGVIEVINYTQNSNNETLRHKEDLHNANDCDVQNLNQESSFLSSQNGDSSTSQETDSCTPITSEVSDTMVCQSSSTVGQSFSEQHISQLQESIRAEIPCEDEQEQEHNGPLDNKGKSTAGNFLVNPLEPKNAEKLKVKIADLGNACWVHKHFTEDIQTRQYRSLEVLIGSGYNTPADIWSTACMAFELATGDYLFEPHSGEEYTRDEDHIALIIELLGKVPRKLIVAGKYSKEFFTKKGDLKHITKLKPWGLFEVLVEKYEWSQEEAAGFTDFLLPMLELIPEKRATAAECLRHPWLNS
Sequence of UniProt P11309 (whole entry, looked up): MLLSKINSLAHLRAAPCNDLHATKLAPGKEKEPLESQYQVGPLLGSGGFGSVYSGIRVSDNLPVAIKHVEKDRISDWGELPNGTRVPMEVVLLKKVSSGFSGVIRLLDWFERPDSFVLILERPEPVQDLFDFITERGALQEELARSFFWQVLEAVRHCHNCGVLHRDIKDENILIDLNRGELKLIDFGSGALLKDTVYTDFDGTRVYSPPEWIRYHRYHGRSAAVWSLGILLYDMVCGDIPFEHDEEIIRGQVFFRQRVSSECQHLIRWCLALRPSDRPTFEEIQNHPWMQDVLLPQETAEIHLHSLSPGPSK
Sequence of UniProt O14965 (whole entry, looked up): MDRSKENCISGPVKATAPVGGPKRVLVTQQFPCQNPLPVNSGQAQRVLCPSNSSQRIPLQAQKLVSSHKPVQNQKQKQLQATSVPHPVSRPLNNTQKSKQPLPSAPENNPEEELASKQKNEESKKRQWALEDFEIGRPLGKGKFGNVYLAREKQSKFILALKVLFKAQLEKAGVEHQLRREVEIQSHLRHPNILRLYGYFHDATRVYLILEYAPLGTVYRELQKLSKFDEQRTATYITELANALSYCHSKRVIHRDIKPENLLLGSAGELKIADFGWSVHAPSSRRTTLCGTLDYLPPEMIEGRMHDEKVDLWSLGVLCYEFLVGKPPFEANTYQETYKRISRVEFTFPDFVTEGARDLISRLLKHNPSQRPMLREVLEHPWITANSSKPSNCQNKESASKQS
Sequence of UniProt P07947 (whole entry, looked up): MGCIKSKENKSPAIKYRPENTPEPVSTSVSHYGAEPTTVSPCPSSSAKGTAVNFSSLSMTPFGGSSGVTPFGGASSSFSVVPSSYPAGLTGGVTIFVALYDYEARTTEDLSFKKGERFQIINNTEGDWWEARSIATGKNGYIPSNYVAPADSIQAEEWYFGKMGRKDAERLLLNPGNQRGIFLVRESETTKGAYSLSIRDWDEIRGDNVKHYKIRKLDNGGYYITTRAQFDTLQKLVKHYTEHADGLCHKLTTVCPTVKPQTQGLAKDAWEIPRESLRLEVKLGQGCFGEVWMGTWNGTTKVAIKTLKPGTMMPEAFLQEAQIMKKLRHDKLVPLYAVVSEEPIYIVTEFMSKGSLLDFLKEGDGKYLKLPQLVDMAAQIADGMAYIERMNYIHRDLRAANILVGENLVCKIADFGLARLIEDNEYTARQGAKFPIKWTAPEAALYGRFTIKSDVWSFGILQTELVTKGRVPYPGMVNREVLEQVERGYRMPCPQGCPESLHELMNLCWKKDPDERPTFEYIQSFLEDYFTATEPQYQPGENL
Sequence of UniProt Q00535 (whole entry, looked up): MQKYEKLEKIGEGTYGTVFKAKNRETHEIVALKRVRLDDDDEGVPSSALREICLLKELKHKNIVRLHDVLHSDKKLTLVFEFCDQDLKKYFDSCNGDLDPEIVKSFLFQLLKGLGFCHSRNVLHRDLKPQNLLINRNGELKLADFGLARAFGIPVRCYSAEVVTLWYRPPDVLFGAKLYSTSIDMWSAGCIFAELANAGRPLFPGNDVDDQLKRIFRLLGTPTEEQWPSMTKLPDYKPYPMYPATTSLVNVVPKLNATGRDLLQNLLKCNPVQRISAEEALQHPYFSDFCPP
Sequence of UniProt P49137 (whole entry, looked up): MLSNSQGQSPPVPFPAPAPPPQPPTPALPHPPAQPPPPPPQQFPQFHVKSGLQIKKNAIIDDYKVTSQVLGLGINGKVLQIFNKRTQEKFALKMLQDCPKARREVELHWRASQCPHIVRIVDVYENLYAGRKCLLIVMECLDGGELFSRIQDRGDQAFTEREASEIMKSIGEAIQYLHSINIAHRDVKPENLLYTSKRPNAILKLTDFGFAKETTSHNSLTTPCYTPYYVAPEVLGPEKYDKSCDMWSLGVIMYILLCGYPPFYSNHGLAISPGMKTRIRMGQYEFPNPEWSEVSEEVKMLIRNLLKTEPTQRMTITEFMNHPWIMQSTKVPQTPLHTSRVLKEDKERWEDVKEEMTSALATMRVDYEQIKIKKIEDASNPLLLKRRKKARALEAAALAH

Study 1 — effect on: cell-free assay; method: competition with immobilised ligand; concentration: 1 µM; endpoint: remaining binding
Structure (SMILES): O=C1NC(c2ccccn2)Sc2ccccc21 (centres unmarked)
VRK2 (Homo sapiens, UniProt Q86Y07): 77%
KDR (Homo sapiens, UniProt P35968): 82%
Aurora kinase A (AURKA, Homo sapiens, UniProt O14965): 93%
CDK14 (Homo sapiens, UniProt O94921): 100%
MAPKAPK2 (Homo sapiens, UniProt P49137): 100%

Study 2 — effect on: enzyme activity; action: inhibitor; concentration: 0.5 µM; endpoint: remaining activity
Compound: Cc1nc(Nc2ncc(C(=O)Nc3c(C)cccc3Cl)s2)cc(N2CCN(CCO)CC2)n1
ABL2 (Homo sapiens, UniProt P42684): 2.74%
ACVRL1 (Homo sapiens, UniProt P37023); baseline: control: 15.9%
PAK1 (Homo sapiens, UniProt Q13153); baseline: control: 102%
SIK2 (Homo sapiens, UniProt Q9H0K1); baseline: control: 1.91%
TYRO3 (Homo sapiens, UniProt Q06418); baseline: control: 87.6%
MELK (Homo sapiens, UniProt Q14680); baseline: control: 81.4%
CLK2 (Homo sapiens, UniProt P49760); baseline: control: 87.2%
YES1 (Homo sapiens, UniProt P07947); baseline: control: 1.94%
SGK2 (Homo sapiens, UniProt Q9HBY8); baseline: control: 107%
JAK2 (Homo sapiens, UniProt O60674); baseline: control: 98.1%
DYRK1A (Homo sapiens, UniProt Q13627); baseline: control: 106%
Cyclin-dependent kinase 5, with p35 (CDK5, Homo sapiens, UniProt Q00535); baseline: control: 101%
MAP3K20 (Homo sapiens, UniProt Q9NYL2); baseline: control: 8.63%
PRKCZ (Homo sapiens, UniProt Q05513); baseline: control: 101%
SRPK1 (Homo sapiens, UniProt Q96SB4); baseline: control: 101%
PIM1 (Homo sapiens, UniProt P11309); baseline: control: 102%

Study 3 — method: RNA Bind-n-Seq; molecule type: RNA; sample: in vitro; concentration: 100 nM; baseline: input RNA pool; reading: higher = stronger binding; endpoint: bound/input enrichment
Target: RING finger protein unkempt homolog, zinc fingers 1-6, SBP tag (UNK, Homo sapiens, UniProt Q9C0B0, residues 30-357)
Sequence of UniProt Q9C0B0 (30-357, looked up): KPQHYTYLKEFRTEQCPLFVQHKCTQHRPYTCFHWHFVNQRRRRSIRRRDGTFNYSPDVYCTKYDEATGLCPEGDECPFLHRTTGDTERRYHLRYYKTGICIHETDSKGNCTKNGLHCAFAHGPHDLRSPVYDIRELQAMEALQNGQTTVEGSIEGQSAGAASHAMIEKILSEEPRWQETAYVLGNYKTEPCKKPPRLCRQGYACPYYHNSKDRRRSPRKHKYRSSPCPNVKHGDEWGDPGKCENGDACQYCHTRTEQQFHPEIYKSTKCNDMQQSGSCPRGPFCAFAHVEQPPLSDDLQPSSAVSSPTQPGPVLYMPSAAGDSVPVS
Setting: RNA with constant flanks, vertebrate orthologous sites, ends assumed
Constant ends, left off below: GGGAGUUCUACAGUCCGACGAUC … CAACAGAGGAUUGAGCAUCA
UGUAGUUUUUUUUUUUAUUUCAAGCAAAACUUUAUUGUACUUGAAUGCGUCCUGUUAGCACACCAUAGACUUGCUGUAAAUGUACUCAUGUCCCCAGUAUCUACGUUCUUUCUAUGAAAG: 1.61 ratio
UAGUACUUAAGCCAACAACAGUUCUAAAAUGCUAUUUAUUUGUGUCUGUAAGUUUGUACAUAGUAAUACCAACCUCAUAUUGUUGCGGAUUUUUGUUUUCACGAGUUUGAGUUUGGUUUU: 0.507 ratio
UAUCUUUAGGAUGAAGCUCUUACACCAAGUGUCACGAGUCUGGAGAACAGAUGGGUUGAGUAGUUGUUCUUAUAAAUUAGUAUCCGUGGAACACAAUCCUUUGUAUGUCAACAUCACAGU: 0.804 ratio
CUCUAUGGGCCUCGCAGAGUUGAAAUAAUGGAAGAGGAAAGUGAAUAGUAAUCUUCAUUUUAGUAUUUAUGCUUAGGUGUGAAAUAAAUGUUAUUUGUUGAUCACUUCUAUAAUCCAGAG: 0.4 ratio
UCCCAGCACUUUGAUAAAAAGUGUGGACUGGCUGCUUGUAUUUUCCUUAUUCUUUUUAAUUAGUUUUAUUAUGUAUGCCACCAUUCGAACGGAGAGUAUUCGGUGGCUAAUUCCAGGACA: 8.47 ratio
AUCUCAUGUAGUUUGUUUUUAAUUUCAAGCAAAAUUGUACUUGAAUGUGUCCCAUUUUGUUAGCACACCUAGACUUGCUGUAACUGUACUCAUGUCCCAGUAUGUACGUUCUUUCUAUGA: 1.31 ratio
CUGGGACCAGCUCUCCUAAUAGGAAUAGUAGUAAGAAAAGUAAACAAAAUGAUAUUUGUAUUGAUAAAACAGAAAUUAAAUCAUGUAAAGUAAAUGCUACCAAUGUUCCAGGCCCUAAAG: 0.397 ratio
UUGGAAAUUCCCCAUUGUCACUGAGAACCACCAAAUCUGACUUUUACAUUUGGUGGAAUUUAGGUUCCUGCCCUGUUGGUUUUUUUUUUUUUUUUAAACAGUUUUCACAAGUUCUUAAAG: 0.96 ratio

Study 4 — method: protein-binding microarray; molecule type: double-stranded DNA, one strand shown; sample: in vitro; concentration: 250 nM; setting: 60-bp whole probe; with: salmon DNA 0.4 mg/ml; baseline: random background probes; reading: higher = stronger binding; endpoint: log fluorescence; constant ends, left off below: GCCTAGCAC … GTCTTGATTCGCTTGACGCTGCTG
Target: Interferon regulatory factor 7, full length, phosphomimetic (IRF7, Homo sapiens, UniProt Q92985, residues 1-503, S101K/S471D/S472D/S475D/S476D/S477D/S483D/S484D/S487D)
Target sequence (chain): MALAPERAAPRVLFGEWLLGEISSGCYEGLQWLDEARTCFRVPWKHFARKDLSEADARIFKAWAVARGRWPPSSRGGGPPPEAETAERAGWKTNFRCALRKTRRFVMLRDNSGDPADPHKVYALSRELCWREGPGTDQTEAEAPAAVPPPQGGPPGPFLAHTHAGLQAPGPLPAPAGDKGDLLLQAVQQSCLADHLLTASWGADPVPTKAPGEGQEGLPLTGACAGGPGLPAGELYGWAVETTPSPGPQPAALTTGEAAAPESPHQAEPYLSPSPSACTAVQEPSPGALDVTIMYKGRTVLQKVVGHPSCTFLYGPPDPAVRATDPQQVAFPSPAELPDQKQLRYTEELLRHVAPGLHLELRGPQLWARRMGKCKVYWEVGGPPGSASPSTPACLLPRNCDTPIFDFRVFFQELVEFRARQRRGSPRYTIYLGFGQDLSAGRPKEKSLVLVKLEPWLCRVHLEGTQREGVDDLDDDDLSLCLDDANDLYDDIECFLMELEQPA
GACGGACTGGGGTATCGGGACGTGCTA: -0.415 z-score
TCAGCTCCCTTTCTCTCTGTGTGCTAG: 0.16 z-score
TTAGGTTTCATACTGCTTTAGTGCTAG: 1.55 z-score
TTAGGTTTCGACACTGGGTTGGTGCTA: 3.38 z-score
ATAGGACTGGGACTGGGTTAGTGCTAG: -0.069 z-score
TTAGGTTTTCTTCTCCTTTAGTGCTAG: 1.23 z-score
GCCGGTTTCGGTCTCGGGACGTGCTAG: 8.17 z-score
TTAGAACTGGGGTAACGATTAGTGCTA: -0.583 z-score

Further values, each from its own experiment
CCOC(=O)[C@@H]1CSCC(=O)N[C@H](CC)C(=O)N(C)[C@@H](C)C(=O)N[C@H](CC(C)C)C(=O)N2CCC[C@@H]2C(=O)N(CC(C)C)CC(=O)N[C@H](CC(C)C)C(=O)N(C)[C@@H](C)C(=O)N[C@@H](CC(C)C)C(=O)N1C — logD (hydrocarbon/water): 1.65

For quick reference, copied from above (study 2):
PRKCZ (Homo sapiens, UniProt Q05513); baseline: control: 101%
ABL2 (Homo sapiens, UniProt P42684): 2.74%
ACVRL1 (Homo sapiens, UniProt P37023); baseline: control: 15.9%
YES1 (Homo sapiens, UniProt P07947); baseline: control: 1.94%
Cyclin-dependent kinase 5, with p35 (CDK5, Homo sapiens, UniProt Q00535); baseline: control: 101%
PAK1 (Homo sapiens, UniProt Q13153); baseline: control: 102%
